Literature values as cited in several papers.
Each line is one published result; not all experiments were run side by side.
Sequence of UniProt Q91XE4 (whole entry, looked up): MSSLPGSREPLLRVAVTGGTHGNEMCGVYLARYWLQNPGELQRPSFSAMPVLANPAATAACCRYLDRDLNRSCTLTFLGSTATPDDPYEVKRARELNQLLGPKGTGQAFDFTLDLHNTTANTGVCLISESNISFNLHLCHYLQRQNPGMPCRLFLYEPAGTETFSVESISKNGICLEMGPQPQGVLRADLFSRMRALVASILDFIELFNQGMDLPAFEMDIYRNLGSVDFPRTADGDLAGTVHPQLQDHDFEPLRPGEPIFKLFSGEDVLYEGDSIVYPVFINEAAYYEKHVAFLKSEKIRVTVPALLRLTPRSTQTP

| SMILES | target or system | test | system | conditions | how to read | endpoint | value |
| --- | --- | --- | --- | --- | --- | --- | --- |
| COC(=O)[C@H](c1ccccc1)[C@H]1CCCCN1 | – | – | human, CES1 wild type, plasma | oral, 10 mg methylphenidate, single dose, median | – | Tmax | 2 h |
| Nc1ccn([C@@H]2O[C@H](CO)[C@@H](O)C2(F)F)c(=O)n1 | – | – | pancreatic cancer patients | dose not given | – | median progression-free survival | 2.51 months |
| NC(=O)c1c(Br)n([C@H]2O[C@@H](CO)[C@@H](O)[C@@H]2O)c2ncnc(N)c12 | CDK2 (Homo sapiens, UniProt P24941) | – | – | – | – | IC50 | 61 nM |
| OCCN1CCN(CCC=C2c3ccccc3Sc3ccc(C(F)(F)F)cc32)CC1 | MCF7 | microarray, Connectivity Map, measured: MAFF mRNA | – | concentration not given, 6 h | reference: DMSO | fold change | 1.52 |
| CC(=O)N[C@@H](CSC(Cl)=CCl)C(=O)O | N-acyl-aromatic-L-amino acid amidohydrolase (carboxylate-forming) (Acy3, Mus musculus, UniProt Q91XE4) | substrate | – | without Co2+ | – | kcat | 0.28 s⁻¹ |
| O=c1[nH]cc(F)c(=O)[nH]1 | – | – | metastatic pancreatic cancer patients | dose not given | – | median overall survival | 4.41 months |
| O=C(O)[C@@H](c1ccccc1)[C@@H]1CCCCN1 | – | – | human, by CES1 genotype, plasma | oral, 10 mg methylphenidate, single dose, median | – | Tmax | 1.8 h |
| Cc1ccc(-c2nc3ccc(C)cn3c2CC(=O)N(C)C)cc1 | – | – | liver microsomes 0.5 mg/mL | 1 µM | – | CLint, scaled | 12.5 mL/min/kg |

For quick reference, copied from above:
| SMILES | target or system | test | system | conditions | how to read | endpoint | value |
| --- | --- | --- | --- | --- | --- | --- | --- |
| CC(=O)N[C@@H](CSC(Cl)=CCl)C(=O)O | N-acyl-aromatic-L-amino acid amidohydrolase (carboxylate-forming) (Acy3, Mus musculus, UniProt Q91XE4) | substrate | – | without Co2+ | – | kcat | 0.28 s⁻¹ |
